{"data": "Assay results gathered from unrelated publications", "target": "Vascular endothelial growth factor receptor 2 (KDR, Homo sapiens, UniProt P35968)", "note": "Lines come from different studies, so protocols differ.", "sequence of UniProt P35968 (whole entry, looked up)": "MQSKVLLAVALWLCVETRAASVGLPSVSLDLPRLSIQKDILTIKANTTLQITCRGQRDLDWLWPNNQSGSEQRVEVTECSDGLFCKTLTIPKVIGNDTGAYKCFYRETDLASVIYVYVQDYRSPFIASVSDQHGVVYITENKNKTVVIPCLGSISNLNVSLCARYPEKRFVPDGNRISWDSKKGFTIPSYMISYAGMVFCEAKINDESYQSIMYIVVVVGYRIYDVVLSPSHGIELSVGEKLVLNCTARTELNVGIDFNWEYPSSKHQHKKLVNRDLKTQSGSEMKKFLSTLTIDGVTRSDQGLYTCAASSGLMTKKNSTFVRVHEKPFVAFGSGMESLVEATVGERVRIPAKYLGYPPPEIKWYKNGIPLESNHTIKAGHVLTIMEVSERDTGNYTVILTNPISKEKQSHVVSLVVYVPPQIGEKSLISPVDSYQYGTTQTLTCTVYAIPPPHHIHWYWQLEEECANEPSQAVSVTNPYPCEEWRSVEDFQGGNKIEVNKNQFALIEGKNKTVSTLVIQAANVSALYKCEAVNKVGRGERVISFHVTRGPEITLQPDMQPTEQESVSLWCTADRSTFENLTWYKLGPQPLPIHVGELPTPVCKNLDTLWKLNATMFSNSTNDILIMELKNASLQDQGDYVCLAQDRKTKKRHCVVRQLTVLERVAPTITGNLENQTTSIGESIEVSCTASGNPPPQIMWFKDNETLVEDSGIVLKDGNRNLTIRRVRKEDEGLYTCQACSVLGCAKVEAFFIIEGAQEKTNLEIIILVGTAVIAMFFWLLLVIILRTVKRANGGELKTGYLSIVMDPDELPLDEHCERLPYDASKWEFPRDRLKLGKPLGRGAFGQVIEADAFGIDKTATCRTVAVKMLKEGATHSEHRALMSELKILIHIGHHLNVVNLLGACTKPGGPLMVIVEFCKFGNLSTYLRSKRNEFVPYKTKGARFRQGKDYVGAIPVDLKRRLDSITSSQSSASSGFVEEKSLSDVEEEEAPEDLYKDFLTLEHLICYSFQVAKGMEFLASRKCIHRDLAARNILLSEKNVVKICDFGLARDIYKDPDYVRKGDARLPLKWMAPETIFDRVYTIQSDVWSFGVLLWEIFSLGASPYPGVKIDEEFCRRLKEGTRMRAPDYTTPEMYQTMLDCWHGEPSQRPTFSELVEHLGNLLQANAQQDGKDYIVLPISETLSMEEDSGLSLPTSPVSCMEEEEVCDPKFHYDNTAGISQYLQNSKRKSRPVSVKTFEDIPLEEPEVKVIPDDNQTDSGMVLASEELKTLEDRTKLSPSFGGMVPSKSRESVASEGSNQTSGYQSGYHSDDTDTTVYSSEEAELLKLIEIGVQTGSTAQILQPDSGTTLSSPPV"}
{"Compound": "C[C@@H]1COCCN1c1nc(NCc2cccnc2C(F)(F)F)c2cccnc2n1", "test": "binding", "conditions": "CEREP panel", "measurement": "IC50", "value": "> 100 µM"}
{"Compound": "CCOC(=O)[C@@H]1Cc2c(cc([N+](=O)[O-])cc2[N+](=O)[O-])[C@H](O)[C@]12C(=O)Nc1ccc(Br)cc12", "test": "binding, competition with immobilised ligand", "conditions": "0.1 µM", "measurement": "remaining binding", "value": "100%"}
{"Compound": "CS(C)(=O)=Nc1ccc(-c2ccc(-c3nc4cc(O[C@@H]5CO[C@H]6[C@@H]5OC[C@H]6O)[nH]c4cc3F)cc2)cc1", "test": "enzyme activity, inhibitor", "conditions": "10 µM", "measurement": "inhibition", "value": "8%"}
{"Compound": "Nc1ccc(/C=C/C(=O)N2CCc3c(oc4c(-c5ccc(F)cc5)cc(-c5ccc(C(=O)N6CCC(F)(F)CC6)cn5)cc34)C2)cn1", "test": "binding, competition with immobilised ligand", "conditions": "1 µM", "measurement": "remaining binding", "value": "94%"}
{"Compound": "CC(C)[C@H]1NC(=O)C[C@H]2/C=C/CCSSC[C@@H](NC1=O)C(=O)N[C@H](Cc1cccc3ccccc13)C(=O)NCC(=O)O2", "test": "enzyme activity, inhibitor", "conditions": "10 µM", "measurement": "inhibition", "value": "0.275%"}
{"Compound": "C[C@H](NCc1ccc(-c2ccc(C(F)(F)F)cc2)cc1)C(N)=O", "test": "cell-free assay, competition with immobilised ligand", "conditions": "1 µM", "measurement": "inhibition", "value": "0%"}
{"Compound": "N[C@H](C(=O)N1CCCC1)C1CCN(c2nccc3c(-c4ncc(Cl)cc4Cl)cccc23)CC1", "test": "cell-free assay", "conditions": "10 µM", "measurement": "inhibition", "value": "31%"}
{"Compound": "O=C1NC(=O)c2c1c1cc(F)c[n+]3c1c1c2c2cc(O)ccc2[n]1[Ru-4]312([N]=C=S)[S+]3CC[S+]1CC[S+]2CC3 (centres unmarked)", "test": "enzyme activity", "conditions": "100 nM, human enzyme, together with: 10 µM ATP", "scale": "baseline: untreated", "measurement": "remaining activity", "value": "27%"}
